Assay results gathered from unrelated publications.
Each line is one published result; not all experiments were run side by side. Numbers after ± are the reported error.
STING1 H232R: Stimulator of interferon genes protein (STING1, Homo sapiens, UniProt Q86WV6, H232R)
Sequence of UniProt Q86WV6 (whole entry, unmodified, looked up): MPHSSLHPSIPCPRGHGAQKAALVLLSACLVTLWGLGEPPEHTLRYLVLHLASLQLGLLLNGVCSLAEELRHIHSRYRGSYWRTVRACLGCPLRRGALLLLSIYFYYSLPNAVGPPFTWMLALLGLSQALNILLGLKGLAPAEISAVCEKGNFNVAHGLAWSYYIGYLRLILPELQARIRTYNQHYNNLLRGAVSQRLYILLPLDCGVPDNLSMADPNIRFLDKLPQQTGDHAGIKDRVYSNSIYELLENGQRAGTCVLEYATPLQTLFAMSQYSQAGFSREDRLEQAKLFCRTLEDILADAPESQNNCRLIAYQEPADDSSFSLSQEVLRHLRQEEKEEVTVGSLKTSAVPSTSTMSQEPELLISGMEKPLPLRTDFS
Sequence of UniProt O75762 (whole entry, unmodified, looked up): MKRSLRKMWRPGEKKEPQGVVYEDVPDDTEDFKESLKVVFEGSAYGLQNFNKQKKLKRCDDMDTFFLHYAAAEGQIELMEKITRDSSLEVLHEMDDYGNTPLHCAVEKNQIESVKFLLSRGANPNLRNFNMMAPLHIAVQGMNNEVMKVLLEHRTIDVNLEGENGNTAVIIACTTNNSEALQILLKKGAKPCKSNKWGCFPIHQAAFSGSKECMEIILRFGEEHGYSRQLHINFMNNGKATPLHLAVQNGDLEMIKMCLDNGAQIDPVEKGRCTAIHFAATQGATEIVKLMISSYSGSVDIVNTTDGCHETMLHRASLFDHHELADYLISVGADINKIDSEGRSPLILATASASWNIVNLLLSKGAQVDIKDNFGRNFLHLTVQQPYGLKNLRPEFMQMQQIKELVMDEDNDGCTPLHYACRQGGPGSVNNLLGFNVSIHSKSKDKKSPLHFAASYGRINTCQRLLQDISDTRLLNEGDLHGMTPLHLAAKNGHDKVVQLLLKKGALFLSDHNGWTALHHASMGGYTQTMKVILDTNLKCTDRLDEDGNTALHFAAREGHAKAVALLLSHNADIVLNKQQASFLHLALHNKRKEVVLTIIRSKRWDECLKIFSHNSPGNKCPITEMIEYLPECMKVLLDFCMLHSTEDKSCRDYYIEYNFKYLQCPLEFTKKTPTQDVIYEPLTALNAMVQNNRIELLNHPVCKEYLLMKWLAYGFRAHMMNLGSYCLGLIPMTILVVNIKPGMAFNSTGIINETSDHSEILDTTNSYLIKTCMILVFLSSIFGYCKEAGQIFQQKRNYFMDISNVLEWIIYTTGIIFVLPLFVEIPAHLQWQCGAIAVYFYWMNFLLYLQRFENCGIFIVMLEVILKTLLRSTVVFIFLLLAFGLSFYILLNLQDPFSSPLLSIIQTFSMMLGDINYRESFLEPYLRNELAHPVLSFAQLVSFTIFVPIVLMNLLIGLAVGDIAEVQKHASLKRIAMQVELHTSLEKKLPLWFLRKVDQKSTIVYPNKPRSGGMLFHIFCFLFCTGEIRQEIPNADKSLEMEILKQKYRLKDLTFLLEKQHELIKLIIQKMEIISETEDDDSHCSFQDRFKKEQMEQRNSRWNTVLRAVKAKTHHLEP
Sequence of UniProt P09914 (whole entry, looked up): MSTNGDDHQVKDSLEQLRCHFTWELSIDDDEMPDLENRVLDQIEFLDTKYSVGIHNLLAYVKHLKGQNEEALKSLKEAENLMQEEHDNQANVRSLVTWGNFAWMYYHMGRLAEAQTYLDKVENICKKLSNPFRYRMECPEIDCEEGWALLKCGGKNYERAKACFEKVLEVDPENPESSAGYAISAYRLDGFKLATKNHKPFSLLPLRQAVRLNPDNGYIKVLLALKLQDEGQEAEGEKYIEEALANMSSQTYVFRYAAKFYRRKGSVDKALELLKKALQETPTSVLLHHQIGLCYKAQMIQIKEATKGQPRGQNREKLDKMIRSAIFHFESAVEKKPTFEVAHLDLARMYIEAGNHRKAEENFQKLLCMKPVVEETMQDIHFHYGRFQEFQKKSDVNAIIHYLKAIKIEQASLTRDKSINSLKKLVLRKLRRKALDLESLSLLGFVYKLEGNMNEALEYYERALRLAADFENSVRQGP
Sequence of UniProt Q9SCZ4 (whole entry, unmodified, looked up): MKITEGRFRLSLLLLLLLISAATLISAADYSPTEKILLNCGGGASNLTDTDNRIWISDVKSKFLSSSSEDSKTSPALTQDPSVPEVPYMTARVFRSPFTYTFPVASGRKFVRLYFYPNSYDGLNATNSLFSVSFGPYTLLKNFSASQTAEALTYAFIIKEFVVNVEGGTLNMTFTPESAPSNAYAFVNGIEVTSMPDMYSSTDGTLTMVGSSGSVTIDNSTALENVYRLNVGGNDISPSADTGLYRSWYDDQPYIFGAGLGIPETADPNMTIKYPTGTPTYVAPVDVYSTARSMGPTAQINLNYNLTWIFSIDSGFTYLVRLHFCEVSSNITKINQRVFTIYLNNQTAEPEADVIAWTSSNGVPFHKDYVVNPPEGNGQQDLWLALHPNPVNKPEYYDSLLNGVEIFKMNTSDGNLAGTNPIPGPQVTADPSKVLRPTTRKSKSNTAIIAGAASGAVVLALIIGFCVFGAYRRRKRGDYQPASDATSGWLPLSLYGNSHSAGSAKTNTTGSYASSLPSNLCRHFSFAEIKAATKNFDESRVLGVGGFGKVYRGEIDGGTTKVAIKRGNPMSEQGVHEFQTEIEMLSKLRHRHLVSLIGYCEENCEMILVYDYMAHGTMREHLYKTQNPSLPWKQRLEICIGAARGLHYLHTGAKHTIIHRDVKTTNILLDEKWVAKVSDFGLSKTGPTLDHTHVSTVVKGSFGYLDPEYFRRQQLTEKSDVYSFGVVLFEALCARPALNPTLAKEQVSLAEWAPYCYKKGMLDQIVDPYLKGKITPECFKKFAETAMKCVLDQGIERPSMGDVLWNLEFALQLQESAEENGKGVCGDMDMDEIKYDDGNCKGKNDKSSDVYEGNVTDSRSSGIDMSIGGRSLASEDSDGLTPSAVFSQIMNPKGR
Sequence of UniProt P29322 (whole entry, looked up): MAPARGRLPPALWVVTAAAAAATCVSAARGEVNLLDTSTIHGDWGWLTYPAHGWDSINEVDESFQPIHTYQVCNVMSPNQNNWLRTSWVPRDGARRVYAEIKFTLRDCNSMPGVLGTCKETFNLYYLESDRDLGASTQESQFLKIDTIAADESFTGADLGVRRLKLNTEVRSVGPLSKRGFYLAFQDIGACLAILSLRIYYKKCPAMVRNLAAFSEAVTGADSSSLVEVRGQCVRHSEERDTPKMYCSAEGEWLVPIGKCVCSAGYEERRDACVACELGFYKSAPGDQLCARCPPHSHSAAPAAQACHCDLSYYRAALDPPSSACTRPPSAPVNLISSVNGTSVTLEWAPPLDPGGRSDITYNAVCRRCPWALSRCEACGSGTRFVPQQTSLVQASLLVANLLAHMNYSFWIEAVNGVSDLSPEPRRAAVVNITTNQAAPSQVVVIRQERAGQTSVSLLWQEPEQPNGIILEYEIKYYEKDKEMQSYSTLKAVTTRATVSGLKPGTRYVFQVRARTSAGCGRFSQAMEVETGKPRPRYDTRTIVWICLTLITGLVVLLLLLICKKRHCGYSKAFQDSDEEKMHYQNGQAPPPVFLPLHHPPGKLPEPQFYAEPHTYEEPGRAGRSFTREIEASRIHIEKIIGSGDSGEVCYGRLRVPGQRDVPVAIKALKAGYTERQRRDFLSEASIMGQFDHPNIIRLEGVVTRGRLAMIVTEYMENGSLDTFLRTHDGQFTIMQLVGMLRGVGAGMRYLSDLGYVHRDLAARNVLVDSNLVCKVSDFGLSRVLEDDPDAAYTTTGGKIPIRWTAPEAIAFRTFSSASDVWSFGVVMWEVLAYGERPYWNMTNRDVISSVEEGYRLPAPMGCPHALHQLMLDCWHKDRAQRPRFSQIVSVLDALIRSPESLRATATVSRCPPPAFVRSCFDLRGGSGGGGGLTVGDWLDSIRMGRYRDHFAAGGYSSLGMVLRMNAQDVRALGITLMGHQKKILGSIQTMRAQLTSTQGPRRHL
Sequence of UniProt P47936 (whole entry, looked up): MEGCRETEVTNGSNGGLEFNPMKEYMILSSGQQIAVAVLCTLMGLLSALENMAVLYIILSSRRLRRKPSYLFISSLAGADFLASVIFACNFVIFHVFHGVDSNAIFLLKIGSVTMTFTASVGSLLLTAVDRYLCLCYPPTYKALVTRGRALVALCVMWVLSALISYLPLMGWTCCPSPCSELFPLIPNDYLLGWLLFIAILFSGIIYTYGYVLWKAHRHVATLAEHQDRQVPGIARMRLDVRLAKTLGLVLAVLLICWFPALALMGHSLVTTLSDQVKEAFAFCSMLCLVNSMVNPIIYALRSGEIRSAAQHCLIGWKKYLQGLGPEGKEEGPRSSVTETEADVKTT
Sequence of UniProt P18825 (whole entry, looked up): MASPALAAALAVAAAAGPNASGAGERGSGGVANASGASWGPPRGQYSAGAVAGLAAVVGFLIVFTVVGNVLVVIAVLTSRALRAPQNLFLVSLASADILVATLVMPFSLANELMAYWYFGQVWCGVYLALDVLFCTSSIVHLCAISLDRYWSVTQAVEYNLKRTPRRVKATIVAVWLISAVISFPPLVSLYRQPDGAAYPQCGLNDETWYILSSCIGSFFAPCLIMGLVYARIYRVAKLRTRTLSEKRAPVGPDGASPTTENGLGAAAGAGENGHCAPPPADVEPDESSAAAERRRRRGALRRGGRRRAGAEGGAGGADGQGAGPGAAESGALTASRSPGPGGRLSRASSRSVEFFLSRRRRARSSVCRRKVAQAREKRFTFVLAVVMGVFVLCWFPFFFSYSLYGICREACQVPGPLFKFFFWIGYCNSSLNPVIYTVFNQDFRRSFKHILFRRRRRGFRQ
Sequence of UniProt Q9SZU7 (whole entry, unmodified, looked up): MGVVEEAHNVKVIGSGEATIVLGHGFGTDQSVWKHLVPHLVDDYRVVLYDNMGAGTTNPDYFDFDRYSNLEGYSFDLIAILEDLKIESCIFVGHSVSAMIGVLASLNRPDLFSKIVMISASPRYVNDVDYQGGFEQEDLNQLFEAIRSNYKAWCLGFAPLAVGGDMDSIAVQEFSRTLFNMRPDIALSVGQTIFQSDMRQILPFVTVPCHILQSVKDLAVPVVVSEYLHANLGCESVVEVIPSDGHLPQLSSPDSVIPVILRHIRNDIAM

| SMILES | target | test | system | setting | measurement | value |
| --- | --- | --- | --- | --- | --- | --- |
| O=C(N[C@@H](CCCCNC(=O)c1ccc([N+](=O)[O-])o1)c1nc2ccccc2[nH]1)c1ccc(-c2ccccc2)o1 | STING1 H232R | reporter gene, inhibitor | THP1-Dual KI-hSTING-R232 | 24 h, 1 h preincubation, with: diABZI 500 nM | EC50 | 17.6 µM |
| O=C(O)[C@@H]1O[C@@H](O[C@H]2[C@H](O)[C@H](O)[C@H](O[C@H]3[C@H](O)[C@H](O)[C@H](O[C@H]4[C@H](O)[C@H](O)[C@H](O)O[C@H]4C(=O)O)O[C@H]3C(=O)O)O[C@H]2C(=O)O)[C@@H](O)[C@@H](O)[C@@H]1O | Beta-lactoglobulin (LGB, Bos taurus, UniProt P02754, A134V/G80D) | isothermal titration calorimetry |  | pH 2.65, 37 °C, 50 mM KH2PO4 | Kd | 397 µM |
| O=C(N[C@@H](CCCCNC(=O)c1ccc([N+](=O)[O-])o1)c1nc2ccccc2[nH]1)c1cnc(-c2ccccc2)nc1 | STING1 H232R | reporter gene, inhibitor | THP1-Dual KI-hSTING-R232 | 24 h, 1 h preincubation, with: diABZI 500 nM | EC50 | 6.2 µM |
| O=C(O)C(Cc1c[nH]cn1)N1C(=O)c2ccc3c4ccc5c6c(ccc(c7ccc(c2c37)C1=O)c64)C(=O)N(CCN1CCCCC1)C5=O (stereo not drawn) | human telomeric G-quadruplex DNA | binding, thiazole orange displacement |  | pH 6 | DC50 | 0.78 ± 0.05 µM |
| CCc1c(C(=O)N[C@@H](CCNC(=O)c2ccc([N+](=O)[O-])o2)c2nc3ccccc3[nH]2)nnn1-c1ccc(C)cc1F | STING1 H232R | reporter gene, inhibitor | THP1-Dual KI-hSTING-R232 | 24 h, 1 h preincubation, with: diABZI 500 nM | EC50 | 3.8 µM |
| O=P(O)(O)OP(=O)(O)OP(=O)(O)OCCCCO | DNA polymerase beta (POLB, Homo sapiens, UniProt P06746) | DNA polymerase activity, inhibitor |  | with: 1 mM Mn2+, poly(dA)/oligo(dT) | Ki | 39 µM |
| O=C(NCC[C@H](NC(=O)c1nc(-c2ccccc2)no1)c1nc2ccccc2[nH]1)c1ccc([N+](=O)[O-])o1 | STING1 H232R | reporter gene, inhibitor | THP1-Dual KI-hSTING-R232 | 24 h, 1 h preincubation, with: diABZI 500 nM | EC50 | 12.4 µM |
| Cc1cccc2c1N(C(=O)n1ccnn1)CC2 | KAI2 (Arabidopsis thaliana, UniProt Q9SZU7, H246A) | ITC |  | H246A mutant, mean | Kd | 90.8 µM |
| O=C(N[C@@H](CCCCNC(=O)c1ccc([N+](=O)[O-])o1)c1nc2ccccc2[nH]1)c1ccc(-c2ncccn2)cc1 | STING1 H232R | reporter gene, inhibitor | THP1-Dual KI-hSTING-R232 | 24 h, 1 h preincubation, with: diABZI 500 nM | EC50 | 9.5 µM |
| CCOC(=O)C(CC)(CCCSCCOCCN)NC(=O)c1ccc(C2CC2)c(Cc2ccc(F)cc2)n1 (stereo not drawn) | Cannabinoid receptor 2 (Cnr2, Mus musculus, UniProt P47936) | ligand displacement, radioligand |  | cell membranes | Ki | 0.01 µM |
| O=C(NC[C@@H](Cc1ccc(F)cc1)N1CCC(O)(C(F)(F)F)CC1)C1(c2ccc(Cl)cc2)CCCC1 | Transient receptor potential cation channel subfamily A member 1 (TRPA1, Homo sapiens, UniProt O75762, I905A) |  |  |  | EC50 | 0.016 µM |
| CC(=O)c1cnc2ccc(-c3cc(Cl)c(O)c(Cl)c3)nc2c1N[C@H]1CC[C@H](CN(C)C)CC1 | Receptor-like protein kinase FERONIA (FER, Arabidopsis thaliana, UniProt Q9SCZ4, M613A) | binding, SPR |  | mutant protein | Kd | 1.5 µM |
| O=C(N[C@@H](CCNC(=O)c1ccc([N+](=O)[O-])o1)c1nc2ccccc2[nH]1)c1ccc2ccccc2c1 | STING1 H232R | reporter gene, inhibitor | THP1-Dual KI-hSTING-R232 | 24 h, 1 h preincubation, with: diABZI 500 nM | EC50 | 16.7 µM |
| Cn1ccc2c(N3CCN(CCCCOc4ccc5c(c4)NC(=O)CC5)CC3)cccc21 | Alpha-2C adrenergic receptor (ADRA2C, Homo sapiens, UniProt P18825) | ligand displacement, radioligand |  |  | Ki | 0.815 µM |
| O=C1c2ccc3c4ccc5c6c(ccc(c7ccc(c2c37)C(=O)N1CCN1CCCCC1)c64)C(=O)N(CCN1CCCCC1)C5=O | human telomeric G-quadruplex DNA | binding, thiazole orange displacement |  | pH 7 | DC50 | 0.98 ± 0.08 µM |
| Cc1nn(-c2cccc(N)c2)c(=O)c2cnc(Nc3ccc(N4CCNCC4)cc3)nc12 | Ephrin type-A receptor 8 (EPHA8, Homo sapiens, UniProt P29322) | kinase activity, inhibitor, SelectScreen kinase profiling |  |  | IC50 | > 10 µM |
| O=C(O)C(Cc1c[nH]cn1)N1C(=O)c2ccc3c4ccc5c6c(ccc(c7ccc(c2c37)C1=O)c64)C(=O)N(C(Cc1c[nH]cn1)C(=O)O)C5=O (stereo not drawn) | human telomeric G-quadruplex DNA | binding, thiazole orange displacement |  | pH 6 | DC50 | > 2.5 µM |
| CO[C@@H]1[C@H](OP(=O)(O)OC[C@H]2O[C@@H](n3cnc4c(=O)[nH]c(N)nc43)[C@H](O)[C@@H]2O)[C@@H](COP(=O)(O)OP(=O)([O-])OP(=O)(O)OC[C@H]2O[C@@H](n3c[n+](C)c4c(O)nc(N)nc43)[C@H](O)[C@@H]2O)O[C@H]1n1cnc2c(N)ncnc21 | Antiviral innate immune response effector IFIT1 (IFIT1, Homo sapiens, UniProt P09914) | microscale thermophoresis |  | pH 7.5, with: structured cap I RNA, 35 nt | Kd | 0.034 µM |

Some of these lines once more:
| SMILES | target | test | system | setting | measurement | value |
| --- | --- | --- | --- | --- | --- | --- |
| Cn1ccc2c(N3CCN(CCCCOc4ccc5c(c4)NC(=O)CC5)CC3)cccc21 | Alpha-2C adrenergic receptor (ADRA2C, Homo sapiens, UniProt P18825) | ligand displacement, radioligand |  |  | Ki | 0.815 µM |
| O=C(NCC[C@H](NC(=O)c1nc(-c2ccccc2)no1)c1nc2ccccc2[nH]1)c1ccc([N+](=O)[O-])o1 | STING1 H232R | reporter gene, inhibitor | THP1-Dual KI-hSTING-R232 | 24 h, 1 h preincubation, with: diABZI 500 nM | EC50 | 12.4 µM |
| O=P(O)(O)OP(=O)(O)OP(=O)(O)OCCCCO | DNA polymerase beta (POLB, Homo sapiens, UniProt P06746) | DNA polymerase activity, inhibitor |  | with: 1 mM Mn2+, poly(dA)/oligo(dT) | Ki | 39 µM |
